Results pooled from the literature.
Every numbered part comes from another study and shows a few of its results, in no order. Positions count from the first letter of the parent shown.

Set 1 — method: aptamer microarray, sandwich; form: DNA with 2'F-ANA; medium: in vitro; concentration: 200 nM; together with: Cy3 exosite-II aptamer, 400 nM; direction: higher = stronger binding; oligonucleotide: GGTTGGTGTGGTTGG
Target: Prothrombin, mature alpha-thrombin (F2, Homo sapiens, UniProt P00734)
Notes: whole 15-mer aptamer, many near background
`2'F-ANA at 1 4 5 6 8 9 10 12`: “mean fluorescence intensity” 47.5 a.u.
For `2'F-ANA at 1 2 4 5 8 10 11`, “mean fluorescence intensity” read 45.9 a.u.
`2'F-ANA at 2 3 5 7 8 9 10 12 13 15`: “mean fluorescence intensity” 59.7 a.u.
`2'F-ANA at 4 5 7 8 9 15` — result for “mean fluorescence intensity”: 73.6 a.u.
`2'F-ANA at 1 2 3 4 6 8 9 12 14 15`: “mean fluorescence intensity” 71.6 a.u.
For `2'F-ANA at 4 6 7 10 13 14 15`, “mean fluorescence intensity” read 57.5 a.u.
For `2'F-ANA at 3 6 7 9 11`, “mean fluorescence intensity” read 801 a.u.
Under “mean fluorescence intensity”, `2'F-ANA at 3 5 13` is recorded as 130 a.u.
`2'F-ANA at 1 3 6 8 9 11 12 14 15`: “mean fluorescence intensity” 95.6 a.u.
For `2'F-ANA at 1 2 3 4 6 8 10 11 12 13 14 15`, “mean fluorescence intensity” read 69.5 a.u.
Under “mean fluorescence intensity”, `2'F-ANA at 2 3 4 5 6 8 10 11 12 15` is recorded as 56.5 a.u.
Under “mean fluorescence intensity”, `2'F-ANA at 4 5 6 8 11 12 15` is recorded as 103 a.u.
`2'F-ANA at 1 3 5 7 8 11` — result for “mean fluorescence intensity”: 59.4 a.u.
`2'F-ANA at 1 3 4 5 7 8 9 10 12 13 14 15`: “mean fluorescence intensity” 51.7 a.u.
`2'F-ANA at 1 4 10 11 13 14 15`: “mean fluorescence intensity” 44.5 a.u.
`2'F-ANA at 1 2 4 5 6 8 9 13 14` — result for “mean fluorescence intensity”: 56.8 a.u.
For `2'F-ANA at 1 7 9 11 13 14`, “mean fluorescence intensity” read 53.2 a.u.
`2'F-ANA at 2 3 5 8 12`: “mean fluorescence intensity” 259 a.u.
For `2'F-ANA at 3 6 8 10 12 13`, “mean fluorescence intensity” read 464 a.u.
`2'F-ANA at 2 3 5 7 8 13` — result for “mean fluorescence intensity”: 94.5 a.u.
For `2'F-ANA at 2 6 13 14 15`, “mean fluorescence intensity” read 105 a.u.
`2'F-ANA at 2 4 6 7 9 11 12 13 14` — result for “mean fluorescence intensity”: 82.8 a.u.
`2'F-ANA at 1 3 4 9 11 14 15`: “mean fluorescence intensity” 60.5 a.u.

Set 2 — method: protein binding microarray; form: double-stranded DNA, one strand shown; medium: in vitro; concentration: not given; baseline: not given; direction: higher = stronger binding
Target: Histone acetyltransferase KAT6A, both winged helices, GST fusion (KAT6A, Homo sapiens, UniProt Q92794, residues 1-181)
Notes: 8-mer, flanks averaged, mean of 2 arrays, mostly near background
Target sequence (chain): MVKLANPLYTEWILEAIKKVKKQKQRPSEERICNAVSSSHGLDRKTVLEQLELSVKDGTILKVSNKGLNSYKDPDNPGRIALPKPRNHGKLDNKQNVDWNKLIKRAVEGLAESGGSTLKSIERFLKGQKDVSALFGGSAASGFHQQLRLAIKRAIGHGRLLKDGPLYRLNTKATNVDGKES
`TACTTCCA` gave an E-score of -0.148.
With `GCATAAGC` the E-score was 0.0665.
`GTTGTACA` has an E-score of 0.129.
With `GATTGGAC` the E-score was -0.153.
For `CACAATGA`, the E-score was -0.268.
`CTTTGTAA` has an E-score of -0.109.
`CCTGCCTC` gave an E-score of -0.277.
The E-score of `AGCAAGTA` is reported as -0.158.
With `AGGGCCGC` the E-score was 0.253.
`GATTAGGA` gave an E-score of -0.0562.
`ATACTAGC` gave an E-score of -0.0625.
`CGACGCCC` gave an E-score of 0.272.
For `TCAGAAAA`, the E-score was -0.341.
`GATCCTGC` has an E-score of -0.0825.
The E-score of `GCATTTTA` is reported as 0.0156.
`ACGTATTC` gave an E-score of 0.0764.
The E-score of `GAGAAATC` is reported as -0.0404.
`CGTTTTGC` gave an E-score of 0.13.
`ACTGGCCA` gave an E-score of -0.193.
`GTGGGAGA` has an E-score of -0.223.
`CCGTCTCC` gave an E-score of 0.253.
With `ACTGGTCA` the E-score was -0.0712.
With `AGACTACT` the E-score was -0.0687.
The E-score of `CACCAGCG` is reported as 0.0675.
The E-score of `TAGTTGGA` is reported as -0.145.

Set 3 — method: RNA Bind-n-Seq; form: RNA; medium: in vitro; concentration: 200 nM; notes: whole 134-nt RNA, ends assumed; together with: 150 mM KCl; baseline: input library; direction: higher = stronger binding
Target: Ras GTPase-activating protein-binding protein 1, full length (G3BP1, Homo sapiens, UniProt Q13283)
Sequence of UniProt Q13283 (whole entry, looked up): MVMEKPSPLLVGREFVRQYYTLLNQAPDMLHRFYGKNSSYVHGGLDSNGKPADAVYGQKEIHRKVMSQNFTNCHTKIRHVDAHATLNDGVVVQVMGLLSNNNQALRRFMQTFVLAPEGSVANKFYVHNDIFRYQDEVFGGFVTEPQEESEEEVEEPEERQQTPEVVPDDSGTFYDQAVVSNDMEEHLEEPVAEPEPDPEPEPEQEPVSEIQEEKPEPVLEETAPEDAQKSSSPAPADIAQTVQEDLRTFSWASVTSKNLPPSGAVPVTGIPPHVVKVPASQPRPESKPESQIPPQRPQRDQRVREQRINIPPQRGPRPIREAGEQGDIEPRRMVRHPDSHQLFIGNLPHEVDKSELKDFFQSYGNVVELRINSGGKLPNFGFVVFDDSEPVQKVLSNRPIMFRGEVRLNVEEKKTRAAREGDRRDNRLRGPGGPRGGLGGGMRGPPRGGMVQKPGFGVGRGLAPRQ
The log2 enrichment of `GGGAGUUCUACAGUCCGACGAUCGAACUUUAGAGGAGGAUCUGAUGGAUAUGGCAGUGGACGUGGAUUUGGGGAUGGCUAUAAUGGGUAUGGAGGAGGACCUGGAGGUGGCAAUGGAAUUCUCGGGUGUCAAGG` is reported as 0.473.
For `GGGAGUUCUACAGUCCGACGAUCUUGAGAAAAGCACCCAUAAUUUGCUACUUGAGGAUUUUAUUCCCUGGAUUCUCUGGAUGCUCAUUGCAUGAAAAGUGGAAAAGUUUAGAUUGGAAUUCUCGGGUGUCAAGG`, the log2 enrichment was -0.279.
`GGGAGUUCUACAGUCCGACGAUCUGGACAUGGAUUUUCAAGCCUACUUAGCUUCCUCUAGUGAAGAUGAAGAGGAGAUAGAAGAGGAGCUACAAGGUAUUGUUAAUCUUUCAGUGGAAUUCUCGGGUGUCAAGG` gave a log2 enrichment of -0.775.
The log2 enrichment of `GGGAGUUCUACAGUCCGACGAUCGCAGGAAGUAAAAACAAAUGGAAAUGCUUCGAAAAGUGGCAGGGGUGGGGGUUGCUAAGGAAAGGGUGGGAUGGGAGUGGGUAAAGAGUUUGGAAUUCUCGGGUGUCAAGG` is reported as 0.772.
The log2 enrichment of `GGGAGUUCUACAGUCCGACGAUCGCAGGAAAAAAAAACAAAUGGAAAUGCUUCGGAUAGUGGCAGGGGUGGGGGUUGCUAAGGAAAGGGUGGGAUGGGAGUGGGUAAAGAGUUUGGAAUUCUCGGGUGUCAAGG` is reported as 1.17.
For `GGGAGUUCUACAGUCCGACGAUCACCAUGCAGGUGGGGAUCUUUGGGAAGUGGGGCAAGGGGGGGAUAGGGAGGGGGGUAACACUUUGGGAACAGGUGGUCCCAGGUCGUUUCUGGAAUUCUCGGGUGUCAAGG`, the log2 enrichment was 0.79.
The log2 enrichment of `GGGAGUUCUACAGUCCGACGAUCAAGUCCUGUGCUACACAUCGUAUGUACCGAAUCGGUUUUUUUGGUUUUUUUGGUGGAAAGUAUUAUGUUACGCCGUUCGGAUCUGCACUUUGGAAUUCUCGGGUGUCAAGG` is reported as -1.36.
The log2 enrichment of `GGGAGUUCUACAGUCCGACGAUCCUCAAGUCCUGUGCUACACAUCGUAUGUACCGAAUCGGGGUUGGUUGGGGUUGGAAAGUAUUAUGUUACGCCGUUCGGAUCUGCACUUCCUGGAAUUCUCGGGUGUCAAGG` is reported as 0.154.
`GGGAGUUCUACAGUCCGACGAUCCCUGUGCUACACAUCGUAUGUACCGAAUCGGCCCCCCCGGCCCCCCCGGGGCCCCCCCGGAAAGUAUUAUGUUACGCCGUUCGGAUCUGCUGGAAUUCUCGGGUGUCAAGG` gave a log2 enrichment of -0.057.

Set 4 — method: DHFR PCA, deep sequencing; medium: yeast; together with: (+)-ABA 200 µM; baseline: wild-type fitted maximum; direction: higher = stronger binding
Target: ABI1, truncated, D143A, DHFR fusion (Arabidopsis thaliana)
Notes: methotrexate growth selection, single substitutions
Starting sequence: PYL1, truncated, DHFR fusion (Arabidopsis thaliana); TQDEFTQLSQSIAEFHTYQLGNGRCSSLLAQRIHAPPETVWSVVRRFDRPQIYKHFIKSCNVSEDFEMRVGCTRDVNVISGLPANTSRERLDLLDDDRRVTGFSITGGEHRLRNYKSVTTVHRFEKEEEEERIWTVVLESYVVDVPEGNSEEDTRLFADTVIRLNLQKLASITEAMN; partner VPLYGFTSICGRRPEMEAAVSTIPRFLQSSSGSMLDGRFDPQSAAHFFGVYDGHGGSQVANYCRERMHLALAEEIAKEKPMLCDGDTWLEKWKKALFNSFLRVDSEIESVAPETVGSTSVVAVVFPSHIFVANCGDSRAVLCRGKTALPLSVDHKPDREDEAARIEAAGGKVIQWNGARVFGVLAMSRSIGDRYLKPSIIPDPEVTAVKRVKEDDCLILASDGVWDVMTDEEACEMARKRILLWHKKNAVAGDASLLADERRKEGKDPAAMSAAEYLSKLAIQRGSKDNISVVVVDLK
`E109R`: “relative binding score” 87.2%.
`I12L` — result for “relative binding score”: 80.4%.
For `R98V`, “relative binding score” read 94.8%.
`N114G` — result for “relative binding score”: 96.8%.
`E139G` — result for “relative binding score”: 9.26%.
`N22C`: “relative binding score” 95.1%.
`V142E`: “relative binding score” 94.7%.
For `E14P`, “relative binding score” read 47.9%.
Under “relative binding score”, `A30D` is recorded as 77.9%.
For `K58R`, “relative binding score” read 97.5%.
`E128K`: “relative binding score” 113%.
For `R32V`, “relative binding score” read 98%.
`T106L` — result for “relative binding score”: 104%.
`T1G`: “relative binding score” 95.1%.
`L94D`: “relative binding score” -2.97%.
`G21K` — result for “relative binding score”: 98.8%.
For `T73N`, “relative binding score” read 95.7%.
`Y141W` — result for “relative binding score”: 54.5%.
`Q51Y` — result for “relative binding score”: 98.3%.

Set 5 — target: CCNA2, cyclin fold, Cln2 fusion (human); method: yeast growth competition, sequencing; medium: yeast; notes: strong parent motif; baseline: not given; direction: higher = stronger binding
Starting sequence: RB1 docking peptide (human); PKPLKKLRFDIEG
For `D10K`, “normalised enrichment score” read 1.62.
`L7W` — result for “normalised enrichment score”: 1.33.
For `E12H`, “normalised enrichment score” read 0.769.
`G13L` — result for “normalised enrichment score”: 0.646.
For `I11F`, “normalised enrichment score” read 0.973.
For `P3S`, “normalised enrichment score” read 1.91.
`R8G` — result for “normalised enrichment score”: 0.458.
`P3E` — result for “normalised enrichment score”: 1.22.
`L7N` — result for “normalised enrichment score”: 1.07.
Under “normalised enrichment score”, `R8Y` is recorded as 1.55.
For `K6Y`, “normalised enrichment score” read -0.126.
For `K2W`, “normalised enrichment score” read 0.902.
`P1N`: “normalised enrichment score” 1.19.
`F9H`: “normalised enrichment score” -0.0146.
`P3V`: “normalised enrichment score” 0.567.
`I11A` — result for “normalised enrichment score”: 1.74.
Under “normalised enrichment score”, `K6C` is recorded as 2.17.
`L4A` — result for “normalised enrichment score”: 2.52.
Under “normalised enrichment score”, `L7M` is recorded as 0.801.
`L4S` — result for “normalised enrichment score”: 1.6.
`E12Y`: “normalised enrichment score” -0.245.
`I11M`: “normalised enrichment score” 0.657.
`K6S`: “normalised enrichment score” 1.26.
`E12A`: “normalised enrichment score” 0.226.
For `D10N`, “normalised enrichment score” read 1.54.

Some of these lines once more (set 1):
For `2'F-ANA at 1 2 4 5 8 10 11`, “mean fluorescence intensity” read 45.9 a.u.
Under “mean fluorescence intensity”, `2'F-ANA at 3 5 13` is recorded as 130 a.u.
For `2'F-ANA at 3 6 7 9 11`, “mean fluorescence intensity” read 801 a.u.
`2'F-ANA at 1 2 4 5 6 8 9 13 14` — result for “mean fluorescence intensity”: 56.8 a.u.
`2'F-ANA at 1 3 5 7 8 11` — result for “mean fluorescence intensity”: 59.4 a.u.
`2'F-ANA at 1 3 4 9 11 14 15`: “mean fluorescence intensity” 60.5 a.u.
`2'F-ANA at 4 5 7 8 9 15` — result for “mean fluorescence intensity”: 73.6 a.u.
`2'F-ANA at 2 3 5 8 12`: “mean fluorescence intensity” 259 a.u.
`2'F-ANA at 1 2 3 4 6 8 9 12 14 15`: “mean fluorescence intensity” 71.6 a.u.
`2'F-ANA at 2 3 5 7 8 13` — result for “mean fluorescence intensity”: 94.5 a.u.
`2'F-ANA at 1 3 4 5 7 8 9 10 12 13 14 15`: “mean fluorescence intensity” 51.7 a.u.
`2'F-ANA at 1 4 5 6 8 9 10 12`: “mean fluorescence intensity” 47.5 a.u.
For `2'F-ANA at 1 2 3 4 6 8 10 11 12 13 14 15`, “mean fluorescence intensity” read 69.5 a.u.
For `2'F-ANA at 4 6 7 10 13 14 15`, “mean fluorescence intensity” read 57.5 a.u.
